Results pooled from the literature.
Compare with care: the assays were run in different laboratories. “And” joins repeats or separate records; there may be more than shown.
Cell line: SK-MEL-28

With `O=C(Nc1nnc2n3c(Cc4ccccc4)n[nH]c3nc(-c3ccc(Cl)cc3)c1-2)c1ccccc1` the cell growth was 111% (SRB; 10 µM, NCI60 single-dose screen; relative to: untreated).
`CCCCN1CCN(c2ccc3[nH]c(-c4ccc5[nH]c(-c6cc(OC)c(OC)c(OC)c6)nc5c4)nc3c2)CC1` gave a growth percent of 66.3% (SRB; 10 µM, 48 h).
For `CCCC(CCC)C(=O)OCc1cn(-c2c3ccccc3nc3ccccc23)nn1`, the growth percentage was 104% (NCI60 single-dose screen; 10 µM).
`NNc1nc(-c2ccc(Cl)cc2)c2c(NC(=O)c3ccccc3)nnc-2[nH]1` has a cell growth of 106% (SRB; 10 µM, NCI60 single-dose screen; relative to: untreated).
With `COc1ccc(OC)c(-c2nc3ccc(-c4nc5ccc(N6CCN(C)CC6)cc5[nH]4)cc3[nH]2)c1` the growth percent was 98.4% (SRB; 10 µM, 48 h).
`CCn1cc(-c2cc(Cn3ccnc3)cc3c2CCN([C@H](c2cc(OC)ccn2)C2CC2)C3=O)c(C(F)(F)F)n1` has an EC50 of 3.04 µM (cell growth, inhibitor; 120 h).
With `CCOC(=O)CSc1nc(-c2ccc(Cl)cc2)c2c(NC(=O)c3ccccc3)nnc-2[nH]1` the cell growth was 102% (SRB; 10 µM, NCI60 single-dose screen; relative to: untreated).
The phototherapeutic index of `[Cl-].[Cl-].[Ru+2].c1cnc2c(c1)c1nc[nH]c1c1cccnc12.c1cnc2c(c1)ccc1cccnc12.c1cnc2c(c1)ccc1cccnc12` is reported as over 40 (normoxia, together with: visible light 100 J/cm2; relative to: dark EC50 over light EC50).
`O=C1NC(c2ccccc2)(c2ccccc2)C(=O)N1Cc1cn(-c2c3ccccc3nc3ccccc23)nn1` has a growth percentage of 104% (NCI60 single-dose screen; 10 µM).
`[Cl-].[Cl-].[Ru+2].c1cnc2c(c1)ccc1cccnc12.c1cnc2c(c1)ccc1cccnc12.c1csc(-c2ccc(-c3ccc(-c4nc5c6cccnc6c6ncccc6c5[nH]4)s3)s2)c1` gave a phototherapeutic index of 270 (normoxia, together with: green light 523 nm, 100 J/cm2).
`CCn1cc(-c2cc(Cn3ccoc3=N)cc3c2CCN([C@@H](C)c2cc(OC)ccn2)C3=O)c(C(F)(F)F)n1` gave an EC50 of 0.496 µM (cell growth, inhibitor; 120 h).
With `C#C[C@@]1(O)[C@@H](CO)O[C@@H](n2ccc3c(N)ncnc32)[C@@H]1O` the TGI was 20.2 µM (SRB; NCI-60 screen).
`[Cl-].[Cl-].[Ru+2].c1cnc2c(c1)ccc1cccnc12.c1cnc2c(c1)ccc1cccnc12.c1csc(-c2ccc(-c3ccc(-c4ccc(-c5nc6c7cccnc7c7ncccc7c6[nH]5)s4)s3)s2)c1` gave an EC50 of under 100 µM (resazurin viability; dark, hypoxia 1% O2).
`Cc1n[nH]c2nc(-c3ccc(Cl)cc3)c3c(NC(=O)c4ccccc4)nnc-3n12` has a cell growth of 111% (SRB; 10 µM, NCI60 single-dose screen; relative to: untreated).
With `O=C1NC(c2ccccc2)(c2ccccc2)C(=O)N1Cc1cn(-c2cc3ccccc3oc2=O)nn1` the growth percentage was 111% (NCI60 single-dose screen; 10 µM).
The cell growth of `O=C(Nc1nnc2n3c(nc(-c4ccc(Cl)cc4)c1-2)SCC3=O)c1ccccc1` is reported as 110% (SRB; 10 µM, NCI60 single-dose screen; relative to: untreated).
The growth percent of `CCCN1CCN(c2ccc3[nH]c(-c4ccc5[nH]c(-c6ccc(OCC)c(OCC)c6)nc5c4)nc3c2)CC1` is reported as -86.6% (SRB; 10 µM, 48 h).
`[Cl-].[Cl-].[Ru+2].c1cnc2c(c1)ccc1cccnc12.c1cnc2c(c1)ccc1cccnc12.c1csc(-c2nc3c4cccnc4c4ncccc4c3[nH]2)c1` has a phototherapeutic index of about 200 (normoxia, together with: visible light 100 J/cm2; relative to: dark EC50 over light EC50).
`CCCN1CCN(c2ccc3nc(-c4ccc5nc(-c6cc(OC)ccc6OC)[nH]c5c4)[nH]c3c2)CC1` has a growth percent of 99.4% (SRB; 10 µM, 48 h).
With `CCN(CC)c1ccc(C=NNC(=O)CSc2nc3ccccc3c(=O)n2Cc2ccc(S(N)(=O)=O)cc2)c(O)c1` the TGI was over 100 µM (NCI five-dose screen).
The growth percent of `CCCN1CCN(c2ccc3[nH]c(-c4ccc5[nH]c(-c6ccc(C(F)(F)F)cc6)nc5c4)nc3c2)CC1` is reported as -94.6% (SRB; 10 µM, 48 h).
For `Cc1cc(-c2ccccc2)n(-c2nc(-c3ccc(Cl)cc3)c3c(NC(=O)c4ccccc4)nnc-3[nH]2)n1`, the cell growth was 96.2% (SRB; 10 µM, NCI60 single-dose screen; relative to: untreated).
With `C#C[C@@]1(O)[C@@H](CO)O[C@@H](n2cc(I)c3c(N)ncnc32)[C@@H]1O` the TGI was 9.27 µM and 14 µM (SRB; NCI-60 screen).
With `CN1CCN(c2ccc3[nH]c(-c4ccc5[nH]c(-c6ccc(C(F)(F)F)cc6)nc5c4)nc3c2)CC1` the growth percent was 63.2% (SRB; 10 µM, 48 h).
`Cn1cncc1C1=CN(c2ncnc3[nH]cnc23)CCS1` has a TGI of 100 µM (melanoma cell line).

Some of these lines once more:
`CCCN1CCN(c2ccc3nc(-c4ccc5nc(-c6cc(OC)ccc6OC)[nH]c5c4)[nH]c3c2)CC1` has a growth percent of 99.4% (SRB; 10 µM, 48 h).
With `C#C[C@@]1(O)[C@@H](CO)O[C@@H](n2ccc3c(N)ncnc32)[C@@H]1O` the TGI was 20.2 µM (SRB; NCI-60 screen).
With `CCN(CC)c1ccc(C=NNC(=O)CSc2nc3ccccc3c(=O)n2Cc2ccc(S(N)(=O)=O)cc2)c(O)c1` the TGI was over 100 µM (NCI five-dose screen).
